Experimental data from different studies.
Values joined by “and” are separate records of one study, mostly repeats; a detail may differ. Numbers after ± are the reported error.
PTGS1: Prostaglandin G/H synthase 1 (PTGS1, Ovis aries, UniProt P05979)
UniProt P05979, sequence (whole entry, looked up): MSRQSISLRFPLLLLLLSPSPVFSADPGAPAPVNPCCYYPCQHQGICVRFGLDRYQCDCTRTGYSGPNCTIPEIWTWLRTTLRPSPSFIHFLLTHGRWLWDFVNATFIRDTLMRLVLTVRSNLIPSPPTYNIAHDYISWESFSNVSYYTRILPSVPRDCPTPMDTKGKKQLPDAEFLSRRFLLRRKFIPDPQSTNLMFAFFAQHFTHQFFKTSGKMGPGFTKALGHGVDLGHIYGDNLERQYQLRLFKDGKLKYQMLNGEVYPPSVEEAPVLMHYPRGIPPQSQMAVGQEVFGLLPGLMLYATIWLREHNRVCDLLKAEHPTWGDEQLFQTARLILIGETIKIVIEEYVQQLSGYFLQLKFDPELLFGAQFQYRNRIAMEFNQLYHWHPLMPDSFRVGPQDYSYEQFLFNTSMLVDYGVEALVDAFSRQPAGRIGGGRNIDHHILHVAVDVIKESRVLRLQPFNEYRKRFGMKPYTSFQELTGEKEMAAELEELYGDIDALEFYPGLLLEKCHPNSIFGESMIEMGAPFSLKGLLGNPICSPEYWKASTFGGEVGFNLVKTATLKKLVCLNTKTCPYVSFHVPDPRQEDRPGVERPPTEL
CPL: CPL (Toxoplasma gondii, UniProt Q6DMN0)
UniProt P55211, sequence (whole entry, looked up): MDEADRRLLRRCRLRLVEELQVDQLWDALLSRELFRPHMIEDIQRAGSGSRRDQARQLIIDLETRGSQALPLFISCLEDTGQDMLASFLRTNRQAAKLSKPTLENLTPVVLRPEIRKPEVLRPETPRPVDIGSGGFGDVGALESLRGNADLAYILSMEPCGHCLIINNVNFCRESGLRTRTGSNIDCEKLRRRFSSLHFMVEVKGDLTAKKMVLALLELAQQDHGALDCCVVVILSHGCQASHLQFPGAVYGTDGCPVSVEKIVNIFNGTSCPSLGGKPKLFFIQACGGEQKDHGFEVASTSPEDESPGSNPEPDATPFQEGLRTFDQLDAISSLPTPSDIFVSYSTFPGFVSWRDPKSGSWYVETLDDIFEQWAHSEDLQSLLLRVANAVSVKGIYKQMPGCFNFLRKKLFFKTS
UniProt P00488, sequence (whole entry, looked up): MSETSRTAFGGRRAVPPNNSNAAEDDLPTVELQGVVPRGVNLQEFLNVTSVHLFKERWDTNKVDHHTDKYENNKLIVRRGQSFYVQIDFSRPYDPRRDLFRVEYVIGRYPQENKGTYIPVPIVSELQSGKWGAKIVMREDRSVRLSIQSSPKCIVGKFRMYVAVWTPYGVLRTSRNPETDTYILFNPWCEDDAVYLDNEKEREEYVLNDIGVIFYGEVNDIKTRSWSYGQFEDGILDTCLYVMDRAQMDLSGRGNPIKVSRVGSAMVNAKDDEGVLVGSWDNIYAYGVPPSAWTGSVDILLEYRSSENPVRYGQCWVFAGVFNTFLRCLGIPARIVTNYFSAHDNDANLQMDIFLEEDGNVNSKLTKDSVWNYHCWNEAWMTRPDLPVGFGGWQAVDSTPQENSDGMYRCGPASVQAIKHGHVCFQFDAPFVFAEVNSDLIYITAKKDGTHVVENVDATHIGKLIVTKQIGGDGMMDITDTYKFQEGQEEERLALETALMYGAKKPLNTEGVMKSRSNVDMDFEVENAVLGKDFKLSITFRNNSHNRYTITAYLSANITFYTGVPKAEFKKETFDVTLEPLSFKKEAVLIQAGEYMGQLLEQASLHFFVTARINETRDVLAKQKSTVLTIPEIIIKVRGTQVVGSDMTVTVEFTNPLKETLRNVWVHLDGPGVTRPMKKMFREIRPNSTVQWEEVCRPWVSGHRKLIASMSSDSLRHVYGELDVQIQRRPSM
UniProt O15393, sequence (whole entry, looked up): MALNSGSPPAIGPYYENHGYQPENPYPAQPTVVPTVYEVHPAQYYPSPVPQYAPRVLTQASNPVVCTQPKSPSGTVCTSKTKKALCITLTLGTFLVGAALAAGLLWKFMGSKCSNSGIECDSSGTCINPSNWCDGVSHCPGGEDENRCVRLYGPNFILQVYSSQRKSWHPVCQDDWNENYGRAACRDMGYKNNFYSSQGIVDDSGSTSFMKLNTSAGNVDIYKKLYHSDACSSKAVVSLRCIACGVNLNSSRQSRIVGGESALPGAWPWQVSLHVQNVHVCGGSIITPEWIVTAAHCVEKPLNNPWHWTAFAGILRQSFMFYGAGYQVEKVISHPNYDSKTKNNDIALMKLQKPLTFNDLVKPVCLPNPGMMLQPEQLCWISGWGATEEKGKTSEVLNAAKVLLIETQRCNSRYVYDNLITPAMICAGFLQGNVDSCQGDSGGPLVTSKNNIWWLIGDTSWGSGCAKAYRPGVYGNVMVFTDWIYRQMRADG
UniProt P10275, sequence (whole entry, looked up): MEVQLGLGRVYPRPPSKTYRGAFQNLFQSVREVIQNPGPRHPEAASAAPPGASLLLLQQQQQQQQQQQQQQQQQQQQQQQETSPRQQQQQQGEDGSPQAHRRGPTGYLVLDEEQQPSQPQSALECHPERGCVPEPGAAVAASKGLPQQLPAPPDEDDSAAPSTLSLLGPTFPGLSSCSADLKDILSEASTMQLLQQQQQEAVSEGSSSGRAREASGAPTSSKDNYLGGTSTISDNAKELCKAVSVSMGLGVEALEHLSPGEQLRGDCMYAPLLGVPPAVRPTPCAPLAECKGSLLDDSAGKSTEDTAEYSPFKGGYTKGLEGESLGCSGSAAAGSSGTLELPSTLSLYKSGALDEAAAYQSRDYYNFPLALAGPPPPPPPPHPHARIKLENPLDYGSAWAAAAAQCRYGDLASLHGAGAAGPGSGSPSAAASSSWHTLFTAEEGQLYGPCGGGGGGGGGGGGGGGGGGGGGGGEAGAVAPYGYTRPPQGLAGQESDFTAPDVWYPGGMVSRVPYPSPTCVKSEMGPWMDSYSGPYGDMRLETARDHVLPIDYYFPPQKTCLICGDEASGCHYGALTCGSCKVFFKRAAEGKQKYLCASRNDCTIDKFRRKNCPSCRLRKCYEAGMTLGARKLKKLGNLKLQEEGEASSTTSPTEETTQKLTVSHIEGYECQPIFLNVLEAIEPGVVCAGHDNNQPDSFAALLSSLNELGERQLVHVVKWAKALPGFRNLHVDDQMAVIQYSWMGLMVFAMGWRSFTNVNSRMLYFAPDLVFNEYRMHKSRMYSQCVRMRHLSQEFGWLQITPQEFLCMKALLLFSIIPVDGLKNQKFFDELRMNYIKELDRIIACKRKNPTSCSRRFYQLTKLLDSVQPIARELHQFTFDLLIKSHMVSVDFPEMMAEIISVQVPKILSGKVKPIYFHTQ
UniProt P32247, sequence (whole entry, looked up): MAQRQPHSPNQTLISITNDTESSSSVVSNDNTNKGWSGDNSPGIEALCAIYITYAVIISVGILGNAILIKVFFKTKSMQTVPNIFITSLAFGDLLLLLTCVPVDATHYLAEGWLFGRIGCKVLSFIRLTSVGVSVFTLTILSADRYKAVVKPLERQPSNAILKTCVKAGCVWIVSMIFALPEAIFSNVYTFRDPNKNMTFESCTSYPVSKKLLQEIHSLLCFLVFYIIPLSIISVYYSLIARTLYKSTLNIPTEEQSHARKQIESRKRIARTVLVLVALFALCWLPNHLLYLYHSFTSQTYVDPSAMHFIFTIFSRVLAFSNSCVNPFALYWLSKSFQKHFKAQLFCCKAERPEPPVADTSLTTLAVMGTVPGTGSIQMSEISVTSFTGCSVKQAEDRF
UniProt Q96P56, sequence (whole entry, looked up): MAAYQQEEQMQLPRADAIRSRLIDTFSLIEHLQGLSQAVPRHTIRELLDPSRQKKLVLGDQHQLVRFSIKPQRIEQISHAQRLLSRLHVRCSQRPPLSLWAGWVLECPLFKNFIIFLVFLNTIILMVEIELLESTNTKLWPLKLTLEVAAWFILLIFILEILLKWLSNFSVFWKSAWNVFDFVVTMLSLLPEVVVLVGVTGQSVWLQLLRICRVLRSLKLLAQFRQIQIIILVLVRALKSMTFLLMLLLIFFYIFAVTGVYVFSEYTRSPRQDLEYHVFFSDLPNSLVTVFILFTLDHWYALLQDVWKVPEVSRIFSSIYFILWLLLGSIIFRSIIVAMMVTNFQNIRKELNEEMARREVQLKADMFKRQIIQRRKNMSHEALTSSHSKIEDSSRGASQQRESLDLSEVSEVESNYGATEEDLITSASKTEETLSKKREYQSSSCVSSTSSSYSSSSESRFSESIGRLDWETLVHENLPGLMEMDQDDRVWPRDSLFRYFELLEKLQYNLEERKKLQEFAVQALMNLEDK
UniProt Q7RTX7, sequence (whole entry, looked up): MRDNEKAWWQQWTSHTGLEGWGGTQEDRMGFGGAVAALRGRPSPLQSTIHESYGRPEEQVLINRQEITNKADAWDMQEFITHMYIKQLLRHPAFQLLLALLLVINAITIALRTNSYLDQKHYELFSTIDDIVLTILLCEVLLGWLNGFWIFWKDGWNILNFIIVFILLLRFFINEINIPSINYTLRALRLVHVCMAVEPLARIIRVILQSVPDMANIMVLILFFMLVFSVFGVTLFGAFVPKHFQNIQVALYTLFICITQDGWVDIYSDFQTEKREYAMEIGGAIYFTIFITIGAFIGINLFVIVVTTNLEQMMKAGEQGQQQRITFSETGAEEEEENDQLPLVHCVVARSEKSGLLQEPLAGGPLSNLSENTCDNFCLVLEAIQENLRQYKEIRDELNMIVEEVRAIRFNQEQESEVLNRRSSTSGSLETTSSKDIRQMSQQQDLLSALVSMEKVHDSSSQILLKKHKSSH
UniProt O43613, sequence (whole entry, looked up): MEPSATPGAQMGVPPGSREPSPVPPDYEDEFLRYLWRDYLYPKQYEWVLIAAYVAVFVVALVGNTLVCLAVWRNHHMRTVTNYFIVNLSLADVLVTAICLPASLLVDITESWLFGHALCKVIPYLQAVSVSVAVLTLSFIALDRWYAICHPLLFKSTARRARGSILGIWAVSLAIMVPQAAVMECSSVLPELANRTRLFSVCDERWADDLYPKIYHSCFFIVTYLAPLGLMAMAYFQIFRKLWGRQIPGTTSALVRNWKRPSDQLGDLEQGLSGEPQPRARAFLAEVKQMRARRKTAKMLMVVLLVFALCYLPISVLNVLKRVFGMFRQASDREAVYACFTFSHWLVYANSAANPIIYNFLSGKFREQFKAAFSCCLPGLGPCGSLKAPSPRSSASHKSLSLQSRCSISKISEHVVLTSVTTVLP

| Structure (SMILES) | target | assay | system | conditions | IC50 |
| --- | --- | --- | --- | --- | --- |
| CSCC[C@H](NC(=O)[C@H](Cc1ccccc1)NC(=O)[C@H](Cc1c[nH]cn1)NC(=O)CNC(=O)[C@@H](NC(=O)[C@H](C)NC(=O)[C@H](Cc1c[nH]c2ccccc12)NC(=O)[C@H](CCC(N)=O)NC(=O)[C@@H]1CCCN1C(=O)[C@@H](NC(=O)[C@@H]1CCC(=O)N1)C(C)C)C(C)C)C(N)=O | Bombesin receptor subtype-3 (BRS3, Homo sapiens, UniProt P32247) | human GRPR activity, cell-based |  |  | > 3 µM |
| CC(=O)N[C@@H](CC(C)C)C(=O)N[C@@H](CCC(=O)O)C(=O)N[C@@H](CO)C(=O)N[C@@H](CC(=O)O)C(=O)CCl | Caspase-9 (CASP9, Homo sapiens, UniProt P55211) | enzyme activity, inhibitor, fluorescence |  |  | 7.5 µM and 7.45 µM |
| COC(=O)C=CCCC(NC(=O)c1ccncc1C(=O)O)C(=O)NC(C(=O)N1CC(=O)CC1C(=O)NC(C(=O)NC(C(N)=O)C1CCCCC1)C1CCCCC1)C(C)(C)C (centres unmarked) | Coagulation factor XIII A chain, with factor XIII B (F13A1, Homo sapiens, UniProt P00488) | isopeptidase activity, inhibitor |  | plasma-derived FXIII-A2B2, thrombin activated, added: A101 substrate | 0.01 ± 0.0001 µM |
| CC(=O)Nc1ccc(S(=O)(=O)N2CCN(c3nc4ccc(Cl)cc4o3)CC[C@H]2C)cc1 | Orexin/Hypocretin receptor type 1 (HCRTR1, Homo sapiens, UniProt O43613) | calcium signal, antagonist, fluorescence |  |  | 1.33 µM |
| CN(CCO)c1ccc(/C=C/C(=O)C(c2ccccc2)c2ccccc2)cc1 | PTGS1 | enzyme activity, inhibitor, ELISA |  |  | 35.7 µM |
| Nc1nccnc1C(=O)Nc1nc2ccc(OC(F)(F)F)cc2s1 | Transmembrane protease serine 2 (TMPRSS2, Homo sapiens, UniProt O15393) | enzyme activity, inhibitor, fluorescence |  |  | 4.93 µM |
| CC(C)C[C@H](NC(=O)OCc1cccc(Cl)c1)C(=O)N[C@@H](C[C@H]1CCNC1=O)C(=O)C(=O)NC1CC1 | Genome polyprotein, 3C protease (Human enterovirus D68, UniProt Q68T42) | 3C protease activity, inhibitor, FRET |  |  | 0.13 ± 0.04 µM |
| CCC(C)SSc1ncc[nH]1 (centres unmarked) | genome polyprotein, 2A protease (Enterovirus D68, UniProt A0A097BW19) | enzyme activity, inhibitor, FRET |  | no DTT | 9.3 ± 4.2 µM |
| CN(CCO)c1ccc(/C=C/C(=O)c2ccco2)cc1 | PTGS1 | enzyme activity, inhibitor, ELISA |  |  | < 25 µM and 20.4 µM |
| CC(C)C[C@@H]1NC(=O)[C@H](CCCCN)NC(=O)[C@H](CC(C)C)NC(=O)[C@@](C)(NC(=O)[C@H](Cc2ccccc2)NC(=O)[C@H](Cc2ccc(O)cc2)NC(=O)[C@H](C)NC(=O)[C@@H](NC(=O)c2ccc3c(c2)C(=O)OC32c3ccc(O)cc3Oc3cc(O)ccc32)[C@@H](C)O)CCCC=CCCC[C@@](C)(C(=O)NCC(=O)N[C@@H](CCCNC(=N)N)C(=O)N[C@@H](Cc2c[nH]c3ccccc23)C(N)=O)NC1=O | Gag-Pol polyprotein, integrase (gag-pol, Human immunodeficiency virus type 1 group M subtype B, UniProt P04585) | integrase 3'-processing, inhibitor |  |  | 5 ± 1 µM |
| Cc1ccc(Oc2ccc(Nc3ccccc3C(=O)O)cc2)cc1 | Androgen receptor (AR, Homo sapiens, UniProt P10275) | reporter gene, antagonist, MMTV-Luc reporter | MDA-kb2 | 20 h, added: 8 nM DHT (EC90) | > 100 µM |
| NC(=O)c1cncc(N2CCN(Cc3ccc(Cl)nc3)CC2)n1 | CatSper channel complex (Homo sapiens, UniProt Q7RTX7+Q86XQ3+Q8NEC5+Q96P56) | calcium influx, inhibitor, FLIPR | human sperm | added: 3 µM progesterone | > 100 µM |
| N#Cc1nc(N2CCOCC2)nc(N(Cc2ccc(F)cc2)CC2CCCC2)n1 | CPL | enzyme activity, inhibitor, Z-L-R-AMC hydrolysis fluorescence |  |  | 0.074 µM |
| COc1cc(OC)c(C(=O)/C=C/c2cccc(OC)c2OC)c(OC)c1 | PTGS1 | enzyme activity, inhibitor, ELISA |  |  | 245 µM |
| OC(COCc1ccccc1Cl)CN1CC=C(c2c[nH]c3ccccc23)CC1 (racemic) | Sodium-dependent serotonin transporter (SLC6A4, Homo sapiens, UniProt P31645) | transporter uptake, inhibitor, radiometric |  |  | 0.441 µM |
| CCCN(Cc1ccc(F)cc1)c1nc(C#N)nc(N2CCOCC2)n1 | CPL | enzyme activity, inhibitor, Z-L-R-AMC hydrolysis fluorescence |  |  | 0.246 µM |
| CC[C@H](C)[C@H](NC(=O)[C@H](Cc1ccccc1)NC(=O)[C@H](CN)NC(=O)[C@H](CCCNC(=N)N)NC(=O)[C@H](Cc1ccccc1)NC(=O)[C@H](Cc1ccccc1)NC(=O)[C@H](CCCN)NC(=O)[C@H](CO)NC(=O)[C@H](CC(C)C)NC(=O)[C@H](CCCNC(=N)N)NC(=O)[C@H](CCSC)NC(=O)[C@H](C)N)C(=O)N[C@@H](CC(C)C)C(=O)N[C@@H](CCC(N)=O)C(=O)N[C@@H](CCCNC(=N)N)C(=O)N[C@@H](CCCCN)C(=O)N[C@@H](CCCCN)C(=O)O | histidine kinase ComD (Streptococcus pneumoniae serotype 4, UniProt A0A0H2US84) |  | Streptococcus pneumoniae cells, Streptococcus pneumoniae |  | > 1 µM |

Excerpt of the above:
| Structure (SMILES) | target | assay | system | conditions | IC50 |
| --- | --- | --- | --- | --- | --- |
| CCC(C)SSc1ncc[nH]1 (centres unmarked) | genome polyprotein, 2A protease (Enterovirus D68, UniProt A0A097BW19) | enzyme activity, inhibitor, FRET |  | no DTT | 9.3 ± 4.2 µM |
